Results gathered from unrelated publications.
Parts stem from different laboratories: compare values within a part only. Changes are numbered by the printed parent chain.

Sample 1
Target: Ras GTPase-activating protein-binding protein 1, full length (G3BP1, Homo sapiens, UniProt Q13283)
Sequence of UniProt Q13283 (whole entry, looked up): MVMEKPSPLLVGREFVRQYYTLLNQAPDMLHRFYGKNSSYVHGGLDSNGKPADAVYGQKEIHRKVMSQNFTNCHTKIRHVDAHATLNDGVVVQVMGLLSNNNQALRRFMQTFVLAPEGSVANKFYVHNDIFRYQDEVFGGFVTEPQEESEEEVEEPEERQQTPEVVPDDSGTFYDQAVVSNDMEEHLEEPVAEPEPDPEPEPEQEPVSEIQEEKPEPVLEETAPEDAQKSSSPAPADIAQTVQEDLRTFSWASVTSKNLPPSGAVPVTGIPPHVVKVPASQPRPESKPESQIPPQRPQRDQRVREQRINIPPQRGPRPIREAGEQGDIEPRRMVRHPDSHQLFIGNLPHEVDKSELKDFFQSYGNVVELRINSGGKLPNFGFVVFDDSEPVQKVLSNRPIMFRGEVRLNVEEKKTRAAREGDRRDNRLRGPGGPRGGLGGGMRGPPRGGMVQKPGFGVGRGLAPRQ
Method: RNA Bind-n-Seq
Form: RNA
Medium: in vitro
Tested at: 200 nM
Setting: whole 134-nt RNA, ends assumed
Together with: 150 mM KCl
Reference: input library
Reading: higher = stronger binding
Constant ends, left off below: GGGAGUUCUACAGUCCGACGAUC … UGGAAUUCUCGGGUGUCAAGG
Oligonucleotide	log2 enrichment
GUCCUGUGCUACACAUCGUAUGUACCGAAUCAAACCCCCAAACCCAAAUUUUUUUAAAAAAGUAUUAUGUUACGCCGUUCGGAUCUGCAC	-0.121
CACAGACAACACGCACCCACAGAGACACAGAGGGAAGGGGUUGGGAUGGGGACAGGGUGCACAGCAGGGCGGGGUAGGACCCCAGCCCCU	2
UCCUGUGCUACACAUCGUAUGUACCGAAUCGGGGAAAAAAAGGGGUGGGGAAAAAGGGGAAAGUAUUAUGUUACGCCGUUCGGAUCUGCA	0.746
UCCUGUGCUACACAUCGUAUGUACCGAAUCGGGGCCCCCGGGCCCCCGGGCCCCCGGGGAAAGUAUUAUGUUACGCCGUUCGGAUCUGCA	-1.18
UCCUGUGCUACACAUCGUAUGUACCGAAUCGGGAAAAAAGGAAAAAAGGGAAAAAAGGGGAAAGUAUUAUGUUACGCCGUUCGGAUCUGC	-0.512
GCAGGAAGUAAAAACAAAUGGAAAUGCUUCGGAUAGUGGCAGGGGUUGGGGUUGCUAAGGAAAGGGUGGGAUGGGAGUGGGUAAAGAGUU	0.767
AAGUCCUGUGCUACACAUCGUAUGUACCGAAUCGGAAAAGGGGAAAAGGAAAAGGGGAAAGUAUUAUGUUACGCCGUUCGGAUCUGCACU	-0.633
UCCUGUGCUACACAUCGUAUGUACCGAAUCGGGCCCCCCGGGCCCCCCGGCCCCCCGGGAAAGUAUUAUGUUACGCCGUUCGGAUCUGCA	-0.67

Sample 2
Target: vanadate, free oxyanion
Method: microfluidic competitive inhibition
Medium: in vitro, cell-free expressed
Tested at: not given
Setting: derived from inhibition constants, unchanged parent 676 nM
Reading: lower = stronger binding
Starting sequence: PafA, mature enzyme, eGFP fusion (Elizabethkingia meningoseptica, UniProt Q9KJX5); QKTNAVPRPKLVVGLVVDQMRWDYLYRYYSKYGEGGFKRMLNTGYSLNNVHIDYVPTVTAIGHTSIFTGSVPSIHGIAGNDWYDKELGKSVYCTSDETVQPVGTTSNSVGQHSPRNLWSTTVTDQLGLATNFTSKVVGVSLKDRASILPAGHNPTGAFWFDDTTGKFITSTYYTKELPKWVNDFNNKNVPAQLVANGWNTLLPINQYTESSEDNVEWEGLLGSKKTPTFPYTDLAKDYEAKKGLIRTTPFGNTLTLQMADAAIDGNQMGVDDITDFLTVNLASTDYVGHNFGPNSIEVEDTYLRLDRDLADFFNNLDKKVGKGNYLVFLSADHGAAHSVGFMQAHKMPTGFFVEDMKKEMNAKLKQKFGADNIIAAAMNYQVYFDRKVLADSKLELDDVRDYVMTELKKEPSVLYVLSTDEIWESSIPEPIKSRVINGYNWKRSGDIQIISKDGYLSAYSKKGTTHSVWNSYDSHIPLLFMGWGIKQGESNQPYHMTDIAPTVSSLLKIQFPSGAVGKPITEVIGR
Variant	oxyanion analog dissociation constant [nM]
V516G	589
M342G	684
Y238V	532

Sample 3
Target: Myc proto-oncogene protein, bHLH-zipper, MAX partner unstated (MYC, Homo sapiens, UniProt P01106, residues 368-449)
Sequence of UniProt P01106 (368-449, looked up): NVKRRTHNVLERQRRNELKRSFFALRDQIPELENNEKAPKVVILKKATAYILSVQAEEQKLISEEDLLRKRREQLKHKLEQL
Method: protein-binding microarray
Form: double-stranded DNA, one strand shown
Medium: in vitro
Tested at: not given
Setting: k-mer, scored over probes, only values ≥0.25
Reading: higher = stronger binding
Oligonucleotide	E-score
CAACACGA	0.266
AATACACG	0.303
AATCATGT	0.303
ACGGGGCG	0.294
AACACGCT	0.373
CTCGCGGC	0.275
GCATGTCA	0.367
CGAGGCCC	0.27

Sample 4
Target: CCND3, cyclin fold, Cln2 fusion (human)
Method: yeast growth competition, sequencing
Medium: yeast
Setting: weak parent motif
Reference: not given
Reading: higher = stronger binding
Starting sequence: viral docking peptide; KGVKRKLFAEDSS; partner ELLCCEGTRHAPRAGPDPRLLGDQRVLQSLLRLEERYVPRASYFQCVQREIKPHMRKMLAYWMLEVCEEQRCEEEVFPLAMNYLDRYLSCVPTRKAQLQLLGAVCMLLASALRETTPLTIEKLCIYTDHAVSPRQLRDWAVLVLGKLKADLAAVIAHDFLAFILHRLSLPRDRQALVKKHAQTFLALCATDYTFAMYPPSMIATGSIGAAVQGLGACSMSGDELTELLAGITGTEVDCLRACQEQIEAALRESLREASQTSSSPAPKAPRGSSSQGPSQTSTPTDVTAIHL
Variant	normalised enrichment score
K4S	0.351
G2V	0.489
F8H	-0.137
G2S	0.065
E10N	-0.0664
V3M	-0.147
D11A	0.206
S12V	-0.00963
A9G	0.0637
G2R	0.152
K6Y	0.0602
R5Y	0.0186
L7R	0.336
L7N	0.412
E10F	0.15
A9I	0.273
D11G	0.139

Single results of other studies
Substance	partner	test	system	setting	endpoint	result
TOMM40 (Homo sapiens, UniProt O96008)	TOMM7 (Homo sapiens, UniProt Q9P0U1)	cross-linking MS	cells	together with: BSPNO	cross-linked residues	K184 to K17

Excerpt of the above (sample 4):
Variant	normalised enrichment score
S12V	-0.00963
A9G	0.0637
G2R	0.152
K6Y	0.0602
R5Y	0.0186
L7R	0.336
